Experimental data of several laboratories.
Numbers after ± are the reported error.
B1: enzyme A172S/A173G/A497K/C179K/M174T/Q178P (Streptomyces platensis, UniProt A0A0A0V031); chain MQHTTIGDVLREHRRSHPGRTALVDGPVRLTWPELDDRVNRLAGSLAASGIGRGDRIMWLGQNSFRVYELIAAAGKLGAMVCVGYWRWAPPEMEFALRDFDPHLVVWQHQEIHETVARTREALGSDDTARWLRHDSAPQDPDGYEAFLAAGGLADPDLDIDPDSPVLVLYTSGTSGRPKGSLLSHTNLIAMATAAAWLGDIDHTTAFLNSGPMFHIGNHQFWGMPTLLMAGKNVIVRRVVAEEVRDLLVAEECTHAFLMPPTVAEIVRLNRDTGHDLSRLRATVAPHLWEGMATTDTSRFTRSGAAAGRGYGQTELSGFAVTAAYGGPAAGNAGRPGPGLTVRVLDTAGRECAVGEAGEICARGTVVHRGYWNRDEVNAHRFRSGWWHTTDLGRREPDGSLTFLGTTTRMLKSAAENIFPAEVENCIEQHPAVREAAVIGVPNTRWAQDVKAVVVLEPDAGVSEQEIIDHCRPRIASYKKPKSVAFAAALPRTVSGKRDYDALDKEYGGGGYPGAATLGPGR
B2: enzyme A172S/A173G/C179K/M174T/Q178P (Streptomyces platensis, UniProt A0A0A0V031); chain MQHTTIGDVLREHRRSHPGRTALVDGPVRLTWPELDDRVNRLAGSLAASGIGRGDRIMWLGQNSFRVYELIAAAGKLGAMVCVGYWRWAPPEMEFALRDFDPHLVVWQHQEIHETVARTREALGSDDTARWLRHDSAPQDPDGYEAFLAAGGLADPDLDIDPDSPVLVLYTSGTSGRPKGSLLSHTNLIAMATAAAWLGDIDHTTAFLNSGPMFHIGNHQFWGMPTLLMAGKNVIVRRVVAEEVRDLLVAEECTHAFLMPPTVAEIVRLNRDTGHDLSRLRATVAPHLWEGMATTDTSRFTRSGAAAGRGYGQTELSGFAVTAAYGGPAAGNAGRPGPGLTVRVLDTAGRECAVGEAGEICARGTVVHRGYWNRDEVNAHRFRSGWWHTTDLGRREPDGSLTFLGTTTRMLKSAAENIFPAEVENCIEQHPAVREAAVIGVPNTRWAQDVKAVVVLEPDAGVSEQEIIDHCRPRIASYKKPKSVAFAAALPRTVSGARDYDALDKEYGGGGYPGAATLGPGR
B3: PTPN2 (Homo sapiens, UniProt P17706); chain MPTTIEREFEELDTQRRWQPLYLEIRNESHDYPHRVAKFPENRNRNRYRDVSPYDHSRVKLQNAENDYINASLVDIEEAQRSYILTQGPLPNTCCHFWLMVWQQKTKAVVMLNRIVEKESVKCAQYWPTDDQEMLFKETGFSVKLLSEDVKSYYTVHLLQLENINSGETRTISHFHYTTWPDFGVPESPASFLNFLFKVRESGSLNPDHGPAVIHCSAGIGRSGTFSLVDTCLVLMEKGDDINIKQVLLNMRKYRMGLIQTPDQLRFSYMAIIEGAKCIKGDSSIQKRWKELSKEDLSPAFDHSPNKIMTEKYNGNRIGLEEEKLTGDRCTGLSSKMQDTM
Chain of UniProt P21729 (whole entry, looked up): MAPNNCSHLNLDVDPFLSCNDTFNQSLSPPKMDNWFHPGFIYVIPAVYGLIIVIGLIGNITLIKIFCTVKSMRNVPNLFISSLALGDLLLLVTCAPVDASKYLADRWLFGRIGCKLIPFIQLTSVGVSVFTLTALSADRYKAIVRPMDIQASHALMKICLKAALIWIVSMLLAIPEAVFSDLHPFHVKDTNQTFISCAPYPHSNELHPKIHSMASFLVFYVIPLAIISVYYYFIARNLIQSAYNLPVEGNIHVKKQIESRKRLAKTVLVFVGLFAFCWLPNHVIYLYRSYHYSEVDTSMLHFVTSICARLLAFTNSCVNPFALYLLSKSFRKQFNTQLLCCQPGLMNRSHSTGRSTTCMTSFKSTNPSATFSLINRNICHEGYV

With `CCCC[C@H](NC(=O)CNC(=O)CNC(=O)c1ccc(NN)nc1)C(=O)N[C@H]1CC(=O)NCCCC[C@@H](C(N)=O)NC(=O)[C@H](Cc2c[nH]c3ccccc23)NC(=O)[C@H](CCCNC(=N)N)NC(=O)[C@@H](Cc2ccccc2)NC(=O)[C@H](Cc2c[nH]cn2)NC1=O` [technetium-99m labelled] the uptake ratio was 0.06 (C57 mouse, B16/F1 melanoma; 2 h, added: NDP-MSH blockade; baseline: tumour over kidney).
With `CC(C)C[C@H](NC(=O)[C@@H]1CCCN1C(=O)[C@H](CCCCN)NC(=O)[C@@H](N)CO)C(=O)N1CCC[C@H]1C(=O)N[C@@H](CCC(=O)O)C(=O)N[C@H](C(=O)N[C@H](C(=O)N[C@@H](CC(=O)O)C(=O)N[C@@H](CCC(=O)O)C(=O)N[C@@H](Cc1ccc(O)cc1)C(=O)N[C@@H](Cc1cn(CCOCCOCCOCCNC(=O)CCc2ccc(O)c(CN(CCN(CC(=O)O)Cc3cc(CCC(=O)NCCCC[C@H](NC(=O)N[C@@H](CCC(=O)O)C(=O)O)C(=O)O)ccc3O)CC(=O)O)c2)nn1)C(=O)O)[C@@H](C)O)C(C)C` [gallium-68 labelled] the SUV was 0.06 g/g (NMRI nu/nu mouse, LNCaP xenograft, brown adipose tissue; 135.34 nmol/kg, low molar activity).
`B1` has a Vmax of 8.58 µmol/min (C[C@@]12CCC[C@@](C)(C(=O)OP(=O)(O)OC[C@H]3O[C@@H](n4cnc5c(N)ncnc54)[C@H](O)[C@@H]3O)[C@H]1C[C@@H](O)[C@]13C[C@H]4C[C@H](O[C@@]4(C)C1)[C@@H]23; steady-state kinetics; pH 7.8, 25 °C).
Under “mean fluorescence intensity”, `C=Cc1c(C)c2cc3nc(c4c5[nH]c(cc6nc(cc1[nH]2)C(C)=C6CC)c(C)c5C(=O)C4)[C@@H](CCC(=O)NCC(=O)N1CCC[C@H]1C(=O)N[C@@H](CC(C)C)C(=O)NCC(=O)N[C@@H](Cc1ccccc1)C(=O)N[C@@H](CCCNC(=N)N)C(=O)N[C@H](C(=O)NCC(=O)N[C@@H](CCCCN)C(N)=O)C(C)C)[C@@H]3C` is recorded as 14 ± 5 fold (OA patient synovial fibroblasts; flow cytometry; 1 µM, 1 h; baseline: untreated).
The Vmax of `B2` is reported as 3.06 µmol/min (C[C@@]12CCC[C@@](C)(C(=O)OP(=O)(O)OC[C@H]3O[C@@H](n4cnc5c(N)ncnc54)[C@H](O)[C@@H]3O)[C@H]1C[C@@H](O)[C@]13C[C@H]4C[C@H](O[C@@]4(C)C1)[C@@H]23; steady-state kinetics; pH 7.8, 25 °C).
`N=C(N)NCCC[C@@H]1NC(=O)[C@H](CCCCNC(=O)CCOCCOCCOCCOCCNC(=O)CC[C@H](NC(=O)CCOCCOCCOCCOCCNC(=O)CC[C@H](NC(=O)CN2CCN(CC(=O)O)CCN(CC(=O)O)CCN(CC(=O)O)CC2)C(=O)NCCOCCOCCOCCOCCC(=O)N[C@@H](CCC(=O)NCCOCCOCCOCCOCCC(=O)NCCCC[C@@H]2NC(=O)[C@@H](Cc3ccccc3)NC(=O)[C@H](CC(=O)O)NC(=O)CNC(=O)[C@H](CCCNC(=N)N)NC2=O)C(=O)NCCOCCOCCOCCOCCC(=O)NCCCC[C@@H]2NC(=O)[C@@H](Cc3ccccc3)NC(=O)[C@H](CC(=O)O)NC(=O)CNC(=O)[C@H](CCCNC(=N)N)NC2=O)C(=O)NCCOCCOCCOCCOCCC(=O)NCCCC[C@@H]2NC(=O)[C@@H](Cc3ccccc3)NC(=O)[C@H](CC(=O)O)NC(=O)CNC(=O)[C@H](CCCNC(=N)N)NC2=O)NC(=O)[C@@H](Cc2ccccc2)NC(=O)[C@H](CC(=O)O)NC(=O)CNC1=O` [indium-111 labelled] has a tissue uptake of 0.23 ± 0.05 %ID/g (female athymic nude mice, muscle; intravenous, 3 µCi, 72 h, U-87 MG glioma xenograft).
The tissue uptake of `CCCNC(=O)[C@H](CC(C)C)NC(=O)[C@H](Cc1c[nH]cn1)NC(=O)CNC(=O)[C@@H](NC(=O)[C@H](C)NC(=O)[C@H](Cc1c[nH]c2ccccc12)NC(=O)[C@H](CCC(N)=O)NC(=O)[C@@H](Cc1ccccc1)NC(=O)CCCCCNC(=O)CN1CCN(CC(=O)O)CCN(CC(=O)O)CCN(CC(=O)O)CC1)C(C)C` [indium-111 labelled] is reported as 0.38 ± 0.07 %ID/g (Gastrin-releasing peptide receptor (Mus musculus, UniProt P21729); biodistribution; CF-1 mice, stomach; intravenous, 1 h, unblocked).
`B3 (PTPN2)` has a Vmax of 186000 µM/min/mg (CCCC[C@H](NC(=O)[C@H](CC(=O)O)NC(=O)[C@H](CC(=O)O)NC(=O)[C@H](CCC(=O)O)NC(=O)[C@H](Cc1ccc(OP(=O)(O)O)cc1)NC(=O)[C@H](CC(=O)O)NC(=O)[C@H](CC(=O)O)NC(=O)[C@H](CCC(=O)O)NC(=O)[C@H](CC(C)C)NC(=O)[C@H](CCC(=O)O)NC(=O)[C@H](CCC(=O)O)NC(=O)c1ccc2c(c1)C1(OC2=O)c2ccc(O)cc2Oc2cc(O)ccc21)C(=O)N[C@@H](CCC(=O)O)C(=O)N[C@@H](CCC(=O)O)C(N)=O; steady-state kinetics; 21 °C).
With `N=C(N)NCCC[C@@H]1NC(=O)[C@H](CCCCNC(=O)CNC(=O)CNC(=O)CNC(=O)CC[C@H](NC(=O)CCOCCOCCOCCOCCNC(=O)CC[C@H](NC(=O)CN2CCN(CC(=O)O)CCN(CC(=O)O)CCN(CC(=O)O)CC2)C(=O)NCCOCCOCCOCCOCCC(=O)N[C@@H](CCC(=O)NCC(=O)NCC(=O)NCC(=O)NCCCC[C@@H]2NC(=O)[C@@H](Cc3ccccc3)NC(=O)[C@H](CC(=O)O)NC(=O)CNC(=O)[C@H](CCCNC(=N)N)NC2=O)C(=O)NCC(=O)NCC(=O)NCC(=O)NCCCC[C@@H]2NC(=O)[C@@H](Cc3ccccc3)NC(=O)[C@H](CC(=O)O)NC(=O)CNC(=O)[C@H](CCCNC(=N)N)NC2=O)C(=O)NCC(=O)NCC(=O)NCC(=O)NCCCC[C@@H]2NC(=O)[C@@H](Cc3ccccc3)NC(=O)[C@H](CC(=O)O)NC(=O)CNC(=O)[C@H](CCCNC(=N)N)NC2=O)NC(=O)[C@@H](Cc2ccccc2)NC(=O)[C@H](CC(=O)O)NC(=O)CNC1=O` [indium-111 labelled] the tissue uptake was 9.5 ± 2.13 %ID/g (athymic nude mice, female, U-87 MG glioma xenograft, U-87 MG tumour; intravenous, 3 µCi, 4 h).
For `CCCC[C@H](NC(=O)CCCCCCCNC(=O)c1ccc(NN)nc1)C(=O)N[C@H]1CC(=O)NCCCC[C@@H](C(N)=O)NC(=O)[C@H](Cc2c[nH]c3ccccc23)NC(=O)[C@H](CCCNC(=N)N)NC(=O)[C@@H](Cc2ccccc2)NC(=O)[C@H](Cc2c[nH]cn2)NC1=O` [technetium-99m labelled], the uptake was 0.36 ± 0.01 %ID/g (C57 mouse, B16/F1 melanoma, liver; intravenous, 24 h).
